# Experimental data pooled from the literature.
# Protocols differ between the studies behind these lines. Several values in a cell are separate wells, animals, samples, runs or records.
Structure (SMILES),test,test system,setting,how to read,measurement,result
CC(C)NC[C@@H](C(=O)N1CCN(c2ncnc3c2[C@H](C)C[C@H]3O)CC1)c1ccc(Cl)cc1,,"human, hepatic impairment Healthy (Child-Pugh), plasma","oral, 100 mg single, geometric mean",,AUC(0-t),277 ng·h/mL
Nc1ccn([C@@H]2O[C@H](CO)[C@@H](O)C2(F)F)c(=O)n1,LC-MS/MS,human,"intravenous, day 15, together with: lonafarnib",baseline: compound alone on day 1,AUC(0-t) ratio,109%
COc1cccc(-c2ccc(NC(=O)C3=C(C(=O)O)CCC3)c(F)c2)c1,,"human, male, plasma","oral, 50 mg once daily, day 13, geometric mean",,AUC(0-t),307000 ng·h/mL
[2H]C([2H])([2H])Oc1cc2c(cc1OC([2H])([2H])[2H])C1CC(=O)C(CC(C)C)CN1CC2 (stereo not drawn),"geometric mean ratio, crossover, measured: alpha-dihydrotetrabenazine","human, fasted, plasma","oral, 15 mg",baseline: compound over tetrabenazine 25 mg fasted,AUC(0-t) ratio,116%
C=CC(=O)Nc1cc(Nc2ncc(C(=O)OC(C)C)c(-c3cn(C)c4ccccc34)n2)c(OC)cc1N(C)CCN(C)C,,"human, fasted","oral, 120 mg single dose, arithmetic mean",,AUC(0-t),485 ng·h/mL
C=C(C)[C@@H]1CC[C@]2(NCCN3CCS(=O)(=O)CC3)CC[C@]3(C)[C@H](CC[C@@H]4[C@@]5(C)CC=C(C6=CC[C@@](CF)(C(=O)O)CC6)C(C)(C)[C@@H]5CC[C@]43C)[C@@H]12,,"healthy human volunteers, plasma","oral, 200 mg, tablet, high-fat state, mean",,AUC(0-t),36000 ng·h/mL
CC(C)[C@@H](CS(=O)(=O)C(C)C)N1C(=O)[C@@](C)(CC(=O)O)C[C@H](c2cccc(Cl)c2)[C@H]1c1ccc(Cl)cc1,,"human, plasma","oral, 60 mg, new tablet fasted",,AUC(0-t) geometric LS mean,2860 ng·h/mL
CCOc1c([C@H](C)n2nc(C)c3c(N)ncnc32)cc(Cl)c(F)c1[C@@H]1CNC(=O)C1,,"healthy fasted humans, plasma","oral, 20 mg",,AUC(0-t) geometric mean,14.2 µM·h
CC(C)c1nc(N(C)S(C)(=O)=O)nc(-c2ccc(F)cc2)c1/C=C/[C@@H](O)C[C@@H](O)CC(=O)O,,"humans, plasma","oral, dose not given, together with: fenebrutinib 200 mg twice daily",baseline: with over without fenebrutinib,AUC(0-t) ratio,~2.66 fold and 2.66 fold
Cc1ccc(NC(=O)c2ccc(CN3CCN(C)CC3)cc2)cc1Nc1nccc(-c2cncc(-c3oncc3C)c2)n1,,"older healthy human adults, plasma","oral, 100 mg single dose, fed, mean",,AUC(0-t),114000 ng·h/mL
C=CC(=O)N1CCC(CNc2ncnc(N)c2-c2ccc(Oc3ccccc3)cc2)CC1,,"healthy male human, plasma","oral, 75 mg",baseline: compound over total radioactivity,AUC(0-t) ratio,10%
CNc1nc(Nc2ccc(-n3cnc(C)n3)c(OC)c2)nc2c1CC[C@H]2c1ccc(F)cc1,,human,"oral, 200 mg once daily, day 1, multiple ascending dose",,AUC(0-t),8020 ng·h/mL

# A few entries again:
Structure (SMILES),test,test system,setting,how to read,measurement,result
C=CC(=O)Nc1cc(Nc2ncc(C(=O)OC(C)C)c(-c3cn(C)c4ccccc34)n2)c(OC)cc1N(C)CCN(C)C,,"human, fasted","oral, 120 mg single dose, arithmetic mean",,AUC(0-t),485 ng·h/mL
